# Assay results from different studies.
# Protocols differ between the studies behind these lines. ± gives the spread as reported.
Compound,tested on,test,test system,conditions,scale,quantity,value
CCc1c(C(=O)C(N)=O)c2c(OCC(=O)O)cccc2n1Cc1ccccc1,,,"TN population, mouse","intravenous, 60 µg/mouse, 24 h, preincubated with venom, added: Daboia russelii venom 2.5 x LD50",,survival,0%
Cn1cnc(Cn2c(=O)[nH]/c(=N\c3cc4cn(C)nc4cc3Cl)n(Cc3cc(F)c(F)cc3F)c2=O)n1,,,"human, all renal function groups","oral, 375 mg, treatment-related decreased GFR, Moderate severity",,patients with adverse event,3.1%
Cc1ccnc(NC2CCOC3(CCN(C(=O)C4(c5ccccc5)CCCC4)CC3)C2)c1 (stereo not drawn),Venezuelan equine encephalitis virus,viral replication,,40 µM,,inhibition,80%
Cn1c(C(=O)Nc2ccc(Cl)cc2)cc2c(=O)n3ccccc3nc21,Severe acute respiratory syndrome coronavirus 2,"viral replication, inhibitor, qPCR",Vero C1008,10 µM,,inhibition,94.1%
O=C(/C=C/c1ccc(O)c(O)c1/C=C/c1ccc(O)c(O)c1)O[C@H](Cc1ccc(O)c(O)c1)C(=O)O,Severe acute respiratory syndrome coronavirus 2,cytopathic effect,Vero C1008,1.562 µM,,inhibition,0%
C[C@@H]1O[C@@H](OC[C@H]2O[C@@H](OCCc3ccc(O)c(O)c3)[C@H](O)[C@@H](O)[C@@H]2OC(=O)/C=C/c2ccc(O)c(O)c2)[C@H](O)[C@H](O)[C@H]1O,"Pseudovirus, SARS-CoV-2 spike",viral entry,,concentration not given,,inhibition,35.4%
COc1ccc(C[C@@H]2c3cc(Oc4cc(C[C@@H]5c6cc(O)c(OC)cc6CCN5C)ccc4O)c(OC)cc3CCN2C)cc1,Severe acute respiratory syndrome coronavirus 2,cytopathic effect,Vero C1008,6.25 µM,,inhibition,0%
CN[C@H](CC(C)C)C(=O)N[C@H]1C(=O)N[C@@H](CC(N)=O)C(=O)N[C@H]2C(=O)N[C@H]3C(=O)N[C@H](C(=O)N[C@H](C(=O)O)c4cc(O)cc(O)c4-c4cc3ccc4O)[C@H](O)c3ccc(c(Cl)c3)Oc3cc2cc(c3O[C@@H]2O[C@H](CO)[C@@H](O)[C@H](O)[C@H]2O[C@H]2C[C@](C)(N)[C@H](O)[C@H](C)O2)Oc2ccc(cc2Cl)[C@H]1O,SARS-CoV-2 pseudovirus,viral entry,,"10 µM, 48 h",,inhibition,20.3 ± 4.78%
CS(=O)(=O)NCC1CCOC2(CCN(C(=O)C3(c4ccccc4)CCCCC3)CC2)C1 (stereo not drawn),Venezuelan equine encephalitis virus,viral replication,,40 µM,,inhibition,60%
COc1ccc(C2COc3c(ccc(O)c3OC)C2)c(OC)c1O (stereo not drawn),Rickettsia prowazekii,,Vero cells,"6 µM, 72 h",,inhibition,> 99%
CC(=O)N1CCN(c2ccc(OCC3COC(Cn4ccnc4)(c4ccc(Cl)cc4Cl)O3)cc2)CC1 (stereo not drawn),Enterovirus C,"viral replication, item: Gaussia luciferase",HeLa,"10 µM, 48 h",,inhibition,83%
CNC(=O)[C@@H](NC(=O)[C@H](CC(C)C)[C@H](O)C(=O)NO)C(C)(C)C,Daboia russelii venom proteases (SVMP),"protease activity, inhibitor",KA population,"10 µM, added: azocasein substrate",relative to: venom alone,remaining activity,0%
CS(=O)(=O)NCC1CCOC2(CCN(C(=O)C3(c4ccc(Cl)cc4)CCCC3)CC2)C1 (stereo not drawn),Venezuelan equine encephalitis virus,viral replication,,40 µM,,inhibition,30%
CC(C)=CCc1c(O)ccc(C(=O)/C=C/c2ccc(O)cc2)c1O,Severe acute respiratory syndrome coronavirus 2,"cytopathic effect, inhibitor",Vero C1008,0.7812 µM,,inhibition,0%
CC(C)(C)NCc1ccc(Nc2ccnc3cc(Cl)ccc23)cc1O,SARS-CoV-2,cytopathic effect,USA_WA1/2020,"round 2, 5-point",,efficacy,85.1%
O=C(O[C@@H]1Cc2c(O)cc(O)cc2O[C@@H]1c1cc(O)c(O)c(O)c1)c1cc(O)c(O)c(O)c1,Severe acute respiratory syndrome coronavirus 2,"cytopathic effect, inhibitor",Vero C1008,50 µM,,inhibition,90%
O=C(N1CCC2(CC1)CC(CNS(=O)(=O)c1ccccc1)CCO2)C1(c2ccccc2)CCCC1 (stereo not drawn),Venezuelan equine encephalitis virus,viral replication,,40 µM,,inhibition,90%
CCc1ccc(NC(=O)c2cc3c(=O)n4ccccc4nc3n2C)cc1,Severe acute respiratory syndrome coronavirus 2,"viral replication, inhibitor, qPCR",Vero C1008,10 µM,,inhibition,96.2%
COc1ccc([C@@]23Oc4cc(OC)cc(OC)c4[C@@]24NC(C)=N[C@@]4(O)[C@H](C(=O)N(C)OC)[C@H]3c2ccccc2)cc1,SARS-CoV,cell-based,,concentration not given,,inhibition,~50%
Nc1ncnc2c([C@@H]3N[C@H](CO)[C@@H](O)[C@H]3O)c[nH]c12,Junin virus,viral replication,"HeLa, Romero",3.1 µM,,inhibition,1.9%
C=C[C@@](C)(/C=C/c1ccc(O)cc1)CCC=C(C)C,Severe acute respiratory syndrome coronavirus 2,"cytopathic effect, inhibitor",Vero C1008,6.25 µM,,inhibition,0%
CC1(C(=O)N2CCC3(CC2)CC(CNS(C)(=O)=O)CCO3)CCCC1 (stereo not drawn),Venezuelan equine encephalitis virus,viral replication,,40 µM,,inhibition,20%
CC(Nc1nc(N2CCNCC2C)nc2ccccc12)c1ccccc1 (stereo not drawn),SARS-CoV-2,cytopathic effect,USA_WA1/2020,,,AC50,14.1 µM
CCC(C)n1ncn(-c2ccc(N3CCN(c4ccc(OCC5COC(Cn6cncn6)(c6ccc(Cl)cc6Cl)O5)cc4)CC3)cc2)c1=O (stereo not drawn),Enterovirus C,"viral replication, item: Gaussia luciferase",HeLa,"10 µM, 48 h",,inhibition,96%
CC(C)(C)NC(=O)NCC1CCOC2(CCN(C(=O)C3(c4ccccc4)CCCC3)CC2)C1 (stereo not drawn),Venezuelan equine encephalitis virus,viral replication,,40 µM,,inhibition,50%
C=C(NC(=O)C(=C)NC(=O)c1csc(C2=N[C@@H]3c4csc(n4)[C@H]4NC(=O)c5csc(n5)[C@H]([C@](C)(O)[C@@H](C)O)NC(=O)[C@H]5CSC(=N5)/C(=C/C)NC(=O)[C@H]([C@@H](C)O)NC(=O)c5csc(n5)[C@]3(CC2)NC(=O)[C@H](C)NC(=O)C(=C)NC(=O)[C@H](C)NC(=O)[C@H]([C@@H](C)CC)N[C@@H]2C=Cc3c([C@H](C)O)cc(nc3[C@H]2O)C(=O)O[C@@H]4C)n1)C(N)=O,Enterovirus C,"viral replication, item: Gaussia luciferase",HeLa,"10 µM, 48 h",,inhibition,92.8%
NCC1CCOC2(CCN(C(=O)C3(c4ccccc4)CCCC3)CC2)C1 (stereo not drawn),Venezuelan equine encephalitis virus,viral replication,,40 µM,,inhibition,40%
Cn1cnc(Cn2c(=O)[nH]/c(=N\c3cc4cn(C)nc4cc3Cl)n(Cc3cc(F)c(F)cc3F)c2=O)n1,Severe acute respiratory syndrome coronavirus 2,viral replication,Vero C1008,17.15 nM,,inhibition,0%
O=C(N1CCC2(CC1)CC(CNS(=O)(=O)C1CC1)CCO2)C1(c2ccccc2)CCCC1 (stereo not drawn),Venezuelan equine encephalitis virus,viral replication,,40 µM,,inhibition,50%
CC[C@H](C)[C@H](NC(=O)[C@H](CC(C)C)NC(=O)[C@H](Cc1c[nH]c2ccccc12)NC(=O)[C@H](CCC(N)=O)NC(=O)[C@@H](NC(=O)[C@H](Cc1ccccc1)NC(=O)[C@H](C)NC(=O)[C@H](CCCCNC(=O)COCCOCCNC(=O)COCCOCCNC(=O)CC[C@H](NC(=O)CCCCCCCCCCCCCCCCCCC(=O)O)C(=O)O)NC(=O)[C@H](CCC(N)=O)NC(=O)[C@H](C)NC(=O)[C@@H](NC(=O)[C@H](CCCCN)NC(=O)[C@H](CC(=O)O)NC(=O)[C@H](CC(C)C)NC(=O)C(C)(C)NC(=O)[C@@H](NC(=O)[C@H](CO)NC(=O)[C@H](Cc1ccc(O)cc1)NC(=O)[C@H](CC(=O)O)NC(=O)[C@H](CO)NC(=O)[C@@H](NC(=O)[C@H](Cc1ccccc1)NC(=O)[C@@H](NC(=O)CNC(=O)[C@H](CCC(=O)O)NC(=O)C(C)(C)NC(=O)[C@@H](N)Cc1ccc(O)cc1)[C@@H](C)O)[C@@H](C)O)[C@@H](C)CC)[C@@H](C)CC)C(C)C)C(=O)N[C@@H](C)C(=O)NCC(=O)NCC(=O)N1CCC[C@H]1C(=O)N[C@@H](CO)C(=O)N[C@@H](CO)C(=O)NCC(=O)N[C@@H](C)C(=O)N1CCC[C@H]1C(=O)N1CCC[C@H]1C(=O)N1CCC[C@H]1C(=O)N[C@@H](CO)C(N)=O,,item: anti-drug antibodies,healthy human subjects,"5/5/8/10 mg escalating, post-baseline",,subjects with treatment-emergent ADA,14.3%

# A few entries again:
Compound,tested on,test,test system,conditions,scale,quantity,value
CNC(=O)[C@@H](NC(=O)[C@H](CC(C)C)[C@H](O)C(=O)NO)C(C)(C)C,Daboia russelii venom proteases (SVMP),"protease activity, inhibitor",KA population,"10 µM, added: azocasein substrate",relative to: venom alone,remaining activity,0%
Cc1ccnc(NC2CCOC3(CCN(C(=O)C4(c5ccccc5)CCCC4)CC3)C2)c1 (stereo not drawn),Venezuelan equine encephalitis virus,viral replication,,40 µM,,inhibition,80%
Cn1c(C(=O)Nc2ccc(Cl)cc2)cc2c(=O)n3ccccc3nc21,Severe acute respiratory syndrome coronavirus 2,"viral replication, inhibitor, qPCR",Vero C1008,10 µM,,inhibition,94.1%
